Results gathered from unrelated publications.
Numbers after ± are the reported error.

C=CC[C@@H]1/C=C(\C)C[C@H](C)C[C@H](OC)[C@H]2O[C@@](O)(C(=O)C(=O)N3CCCC[C@H]3C(=O)O[C@H](/C(C)=C/[C@@H]3CC[C@@H](O)[C@H](OC)C3)[C@H](C)[C@@H](O)CC1=O)[C@H](C)C[C@@H]2OC
solubility (menthol/camphor eutectic microemulsion): > 10000 µg/mL

Oc1ccc(/C=C/c2cc(O)cc(O)c2)cc1
solubility (shake flask; PEG-400; 25 °C): 374000 µg/mL

CC(=O)O[C@H]1C(=O)[C@@]2(C)[C@H]([C@H](OC(=O)c3ccccc3)[C@]3(O)C[C@H](OC(=O)[C@H](OC(=O)OCc4cc(C(=O)O)ccc4OP(=O)(O)O)[C@@H](NC(=O)c4ccccc4)c4ccccc4)C(C)=C1C3(C)C)[C@]1(OC(C)=O)CO[C@@H]1C[C@@H]2O
solubility (HBSS; 30 s, pH 6.5): 100 µg/mL

CC(=O)Oc1cc(-c2coc3cc(OC(C)=O)c(OC(C)=O)c(OC(C)=O)c3c2=O)cc(OC(C)=O)c1OC(C)=O
solubility (aqueous buffer): > 100 µM

COc1cc(/C=C/C(=O)CC(=O)/C=C/c2ccc(O)c(OC)c2)ccc1O
solubility (1,2-propanediol; 48 h, room temperature): 2680 ± 250 µg/mL

CN(C)C(=O)c1cc2cnc(Nc3ccc(N4CCNCC4)cn3)nc2n1C1CCCC1
solubility (acetate buffer; 24 h, pH 4.5, 37 °C): > 2400 µg/mL

COCCN1C(=O)c2ccccc2NC12C(=O)N(C)c1ccc(Br)cc12 (stereo not drawn)
solubility (dried DMSO stock; PBS; pH 7.4): 58 ± 16 µM

CN(C)C(=N)NC(=N)N.C[C@H](CCC(=O)O)[C@H]1CC[C@H]2[C@@H]3[C@H](O)C[C@@H]4C[C@H](O)CC[C@]4(C)[C@H]3C[C@H](O)[C@]12C
solubility (Capryol 90 (propylene glycol monocaprylate)): < 5 mg/g

CCc1ccccc1-c1ccc2c(c1)C1(Nc3ccccc3C(=O)N1c1ccc(C)cc1)C(=O)N2C (stereo not drawn)
solubility (dried DMSO stock; PBS; pH 7.4): 0.2 ± 0.1 µM

CCC[C@@]1(CCc2ccccc2)CC(O)=C([C@H](CC)c2cccc(NS(=O)(=O)c3ccc(C(F)(F)F)cn3)c2)C(=O)O1
solubility (sesame oil; 72 h, 37 °C): 5900 ± 300 µg/mL

CC(/C=C/C=C(\C)C(=O)O)=C\C=C\C=C(C)\C=C\C=C(/C)C(=O)O
solubility (shake-flask; FaSSGF; 1 h, pH 1.6, 37 °C): < 0.5 µg/mL

COc1cc2c(cc1OC)CN(CCc1ccc(NC(=O)c3cccc4c(=O)c5cccc(OC)c5[nH]c34)cc1)CC2
solubility (Cremophor EL microemulsion; 24 h, 37 °C): 4200 ± 200 µg/mL

CCCCCCCCCc1nc2cc(Cl)ccc2c(=O)n1N
solubility (equilibrium, HPLC-UV; 2% PEG400 + 2% polysorbate 80 in water; >24 h, 37 °C): 231 ± 3.08 µg/mL

O=c1cc(-c2cccc3c2Sc2ccccc2S3)oc(N2CCOCC2)c1
solubility (equimolar phosphoric acid, 5% DMSO, 10% encapsin; pH 4): 1000 µg/mL

C=CC[C@@H]1/C=C(\C)C[C@H](C)C[C@H](OC)[C@H]2O[C@@](O)(C(=O)C(=O)N3CCCC[C@H]3C(=O)O[C@H](/C(C)=C/[C@@H]3CC[C@@H](O)[C@H](OC)C3)[C@H](C)[C@@H](O)CC1=O)[C@H](C)C[C@@H]2OC
solubility (shake flask; 30% w/v nicotinamide solution; 3 days, 37 °C): 368 ± 12.8 µg/mL

CCCN(Cc1ccccc1OC)C(=O)c1ccc(F)c(Br)c1
solubility (50 mM phosphate buffer; 12 h, pH 7.4, 37 °C): > 500 µg/mL

COc1ccc(-c2cc(=O)c3c(O)c(OC)c(OC)c(OC)c3o2)cc1
solubility (solvent injection method; 0.5% PVA aqueous solution; 72 h, 25 °C): > 6 µM

CN(C)CCN1C(=O)c2ccccc2NC12C(=O)N(C)c1ccc(Br)cc12 (stereo not drawn)
solubility (dried DMSO stock; PBS; pH 7.4): 814 ± 63 µM

CSc1cc(C)nc(SC)c1NC(=O)CN1CCN(CCSc2nc3ccccc3[nH]2)CC1.Cl
solubility (0.05 N HCl aqueous; 24 h, pH 1.3): 19000 µg/mL

C[C@](N)(Cc1ccc(O)c(O)c1)C(=O)O
solubility (supercritical carbon dioxide; 5 h, 313 K, 12 MPa, density 719.2 kg/m3): 85.6 µg/mL

CN1C(=O)C2(Nc3ccccc3C(=O)N2Cc2ccco2)c2cc(Br)ccc21 (stereo not drawn)
solubility (dried DMSO stock; PBS; pH 7.4): 4 to 16 µM

O=C(O[C@@H]1Cc2c(O)cc(O)cc2O[C@@H]1c1cc(O)c(O)c(O)c1-c1c([C@H]2Oc3cc(O)cc(O)c3C[C@H]2OC(=O)c2cc(O)c(O)c(O)c2)cc(O)c(O)c1O)c1cc(O)c(O)c(O)c1
solubility (aqueous buffer): > 100 µM

CN1CC[C@H](c2c(O)cc(O)c3c(=O)cc(/C=C/c4c(Cl)cccc4Cl)oc23)[C@H](O)C1
solubility (MeOH/CHCl3 75:25 v/v): > 10000 µg/mL

O=C(Nc1ccc([N+](=O)[O-])cc1Cl)c1cc(Cl)ccc1O
solubility (in vitro lipolysis; digested blank lipid formulation; 24 h, pH 6.5, 37 °C): ~30 µg/mL

CC(=O)O[C@@]12CO[C@@H]1C[C@H](O)[C@@]1(C)C(=O)[C@H](O)C3=C(C)[C@@H](OC(=O)[C@H](O)[C@@H](NC(=O)OC(C)(C)C)c4ccccc4)C[C@@](O)([C@@H](OC(=O)c4ccccc4)[C@H]21)C3(C)C
solubility (Miglyol 808; 24 h): 52100 ± 840 µg/mL

CC(C)CCn1c(CN2CCN(C(=O)C3CC3)CC2)nc2c1c(=O)n(C)c(=O)n2C
solubility (aqueous buffer; pH 7.4): > 60 µg/mL

NC(=O)c1[nH]c2ccc(Cl)cc2c1S(=O)(=O)c1ccccc1
solubility (10% w/v BSA in water; 120 h, ambient): 55.9 µg/mL

For quick reference, copied from above:
CSc1cc(C)nc(SC)c1NC(=O)CN1CCN(CCSc2nc3ccccc3[nH]2)CC1.Cl
solubility (0.05 N HCl aqueous; 24 h, pH 1.3): 19000 µg/mL

C=CC[C@@H]1/C=C(\C)C[C@H](C)C[C@H](OC)[C@H]2O[C@@](O)(C(=O)C(=O)N3CCCC[C@H]3C(=O)O[C@H](/C(C)=C/[C@@H]3CC[C@@H](O)[C@H](OC)C3)[C@H](C)[C@@H](O)CC1=O)[C@H](C)C[C@@H]2OC
solubility (shake flask; 30% w/v nicotinamide solution; 3 days, 37 °C): 368 ± 12.8 µg/mL

CCc1ccccc1-c1ccc2c(c1)C1(Nc3ccccc3C(=O)N1c1ccc(C)cc1)C(=O)N2C (stereo not drawn)
solubility (dried DMSO stock; PBS; pH 7.4): 0.2 ± 0.1 µM
